Published values collected from several papers.
Every numbered part comes from another study and shows a few of its results, in no order. Changes are numbered by the printed parent chain.

Series 1
Target: HLF, bZIP domain (human)
Technique: DHFR protein complementation
Sample: yeast
Notes: single substitutions, most at no-binding floor
Reference: wild-type JUN-FOS pair
Reading: higher = stronger binding
Endpoint: binding fitness
Parent: JUN, bZIP domain (human); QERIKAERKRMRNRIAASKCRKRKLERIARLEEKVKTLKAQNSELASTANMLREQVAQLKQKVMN; partner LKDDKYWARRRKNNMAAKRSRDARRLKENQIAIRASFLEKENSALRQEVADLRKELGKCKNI
S43W: -1.5 natural log
A40K: -1.34 natural log
V35P: -1.49 natural log
I28V: -1.5 natural log
L59S: -1.33 natural log
K34D: -1.5 natural log
Q41V: -1.38 natural log
S47H: -1.38 natural log

Series 2
Target: Histone acetyltransferase KAT6A, both winged helices, GST fusion (KAT6A, Homo sapiens, UniProt Q92794, residues 1-181)
Technique: protein binding microarray
Form: double-stranded DNA, one strand shown
Sample: in vitro
Tested at: not given
Notes: 8-mer, flanks averaged, mean of 2 arrays, mostly near background
Reference: not given
Reading: higher = stronger binding
Endpoint: E-score
Target sequence (chain): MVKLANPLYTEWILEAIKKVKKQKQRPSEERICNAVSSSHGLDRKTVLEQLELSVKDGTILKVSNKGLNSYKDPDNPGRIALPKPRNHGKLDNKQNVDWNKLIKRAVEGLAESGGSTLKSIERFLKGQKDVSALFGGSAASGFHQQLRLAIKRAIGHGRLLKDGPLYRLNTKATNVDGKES
AGTTACGG: 0.141
CCGTGCCA: 0.0853
CGCCTCAC: 0.104
CGTTATAC: 0.0766
TGAAAACA: 0.0585
CGCTACGC: 0.323
AACTTATT: -0.0288
AAGGGTAC: -0.172

Mixed results
P1: PafA, mature enzyme, eGFP fusion (Elizabethkingia meningoseptica, UniProt Q9KJX5); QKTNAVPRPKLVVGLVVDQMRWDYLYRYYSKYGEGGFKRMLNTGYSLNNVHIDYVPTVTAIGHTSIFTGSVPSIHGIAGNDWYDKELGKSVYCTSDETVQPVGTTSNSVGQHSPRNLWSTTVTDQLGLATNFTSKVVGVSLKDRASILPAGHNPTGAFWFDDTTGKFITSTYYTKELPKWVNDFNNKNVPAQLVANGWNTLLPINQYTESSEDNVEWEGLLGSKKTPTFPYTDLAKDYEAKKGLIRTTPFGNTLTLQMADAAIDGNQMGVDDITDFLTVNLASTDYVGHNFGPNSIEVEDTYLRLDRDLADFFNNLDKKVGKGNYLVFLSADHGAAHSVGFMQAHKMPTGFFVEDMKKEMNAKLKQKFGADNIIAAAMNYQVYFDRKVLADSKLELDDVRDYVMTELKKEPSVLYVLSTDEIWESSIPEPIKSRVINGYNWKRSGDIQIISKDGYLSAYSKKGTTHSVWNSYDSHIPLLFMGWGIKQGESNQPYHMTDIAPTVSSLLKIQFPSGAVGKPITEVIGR
FLOT1 (Homo sapiens, UniProt O75955)
cross-linked residues (EP400 (Homo sapiens, UniProt Q96L91); cross-linking MS; cell fractions; added: DSSO): K198 to S1190

P1 G222V
phosphate dissociation constant (inorganic phosphate, free oxyanion; microfluidic competitive inhibition; in vitro, cell-free expressed; not given, derived from inhibition constants, unchanged parent 615000 nM; lower = stronger binding): 486 µM

RPN1 (Homo sapiens, UniProt P04843)
cross-linked residues (MLEC (Homo sapiens, UniProt Q14165); cross-linking MS; cell fractions; added: DSSO): K176 to K246

For quick reference, copied from above (series 2):
AACTTATT: -0.0288
